Results gathered from unrelated publications.
Compare with care: the assays were run in different laboratories.

Compound | test | test system | setting | endpoint | value
COc1ccc([C@@H](O)c2cc(-c3ncnc4cc(N5CCOCC5)ccc34)c(F)cc2Cl)nn1 | refers to: Constipation | locally advanced rectal cancer patients | dose not given, all dose groups, together with: capecitabine plus radiotherapy | patients with TEAE | 21%
COc1cc2nccc(Oc3ccc(NC(=O)c4cc5c(n(-c6ccccc6)c4=O)CCCC5=O)nc3)c2cc1OC | – | patients with relapsed/refractory AML | oral, 6 mg once daily | patients with serious TEAEs | 66.7%
Cc1ccc(C(=O)N(CCCN)C(c2nc3snc(C)c3c(=O)n2Cc2ccccc2)C(C)C)cc1 (stereo not shown) | – | patients | intravenous, 16 mg/day | patients with grade ≥3 adverse events | 44%
FC(F)(F)c1ccc(CNc2ccc(Cc3c[nH]c4ncc(Cl)cc34)cn2)cn1 | – | patients with advanced solid tumours | oral, dose not given, all grades, related to treatment | patients with ALT increase | 19%
C=CCN1CC(=O)N2[C@@H](Cc3ccc(O)cc3F)C(=O)N(Cc3cccc(N4CC(N5CCN(CC)CC5)C4)n3)C[C@@H]2N1C(=O)NCc1ccccc1 | – | advanced solid tumour patients | 100 mg twice daily, treatment-related, any grade | patients with ALT increased | 33.3%
CC(C)C[C@H](NC(=O)[C@@H](Cc1c[nH]c2ccccc12)NC(=O)[C@H](Cc1ccc(O)cc1)NC(=O)[C@H](CO)NC(=O)[C@H](Cc1c[nH]c2ccccc12)NC(=O)[C@H](Cc1c[nH]cn1)NC(=O)[C@@H]1CCC(=O)N1)C(=O)N[C@@H](CCCNC(=N)N)C(=O)N1CCC[C@H]1C(=O)NCC(N)=O | – | Chinese CPP children, girls | intramuscular, 22.5 mg, 12 months, day 1, month 6 | patients with TEAEs | 88.7%
CCOc1c([C@H](C)n2nc(C)c3c(N)ncnc32)cc(Cl)c(F)c1[C@@H]1CNC(=O)C1 | refers to: QTcF ≤450 ms | previously treated B-cell malignancy | oral, 10 mg once daily, baseline QTcF ≤450 ms | patients | 100%
O=C(NC[C@H]1CN(c2ccc(N3CCOCC3=O)cc2)C(=O)O1)c1ccc(Cl)s1 | Phoenix NLME | atrial fibrillation patients, plasma | oral, dose not given | patients below AUC range | 48%
CNC(=O)c1cc(Oc2ccc(NC(=O)Nc3cc(C(C)(C)C)nn3-c3ccc4ncccc4c3)c(F)c2)ccn1 | – | patients | oral, dose not given, cycles 1 and 2, Low AUC subgroup | patients with cardiac disorders | 13%
CNC(=O)c1ccc(-c2cnc3ncc(Cc4ccc5ncccc5c4)n3n2)cc1F | refers to: Vomiting, all grades | gastric cancer patients | oral, 600 mg twice daily, expansion cohort, any causality | patients with adverse event | 33%
COc1cc(Nc2ncc3c(n2)-c2ccc(Cl)cc2C(c2c(F)cccc2OC)=NC3)ccc1C(=O)O | refers to: increased ALT, grade 2 | cancer patients, phase 1/2 | oral, dose not given, together with: pembrolizumab | patients with adverse event | 4%
O=C(Nc1nc2cccc(-c3ccc(CN4CCS(=O)(=O)CC4)cc3)n2n1)C1CC1 | – | rheumatoid arthritis patients | oral, 100 mg twice daily, 4 weeks, regardless of relatedness | patients with gastrointestinal pain | 0%
FC(F)(F)c1ccc(CNc2ccc(Cc3c[nH]c4ncc(Cl)cc34)cn2)cn1 | refers to: blood alkaline phosphatase increased | patients with TGCT | oral, 1000 mg/day, grade 3 or higher | patients with treatment-related adverse event | 0%
Cc1cc(NC2CCN(C(=O)OC3CCN(C(=O)/C=C/CN(C)C)C3)CC2)n2ncc(C(C)C)c2n1 (stereo not shown) | CTCAE v4.0, refers to: Constipation | patients with advanced solid tumours | oral, dose not given, TIW, grade 3 or higher | patients with TEAE | 0%
Cc1cc(-c2nnc(N)nc2-c2ccc(F)cc2)cc(Cl)n1 | refers to: Colitis | IO-naive mCRPC patients, male | oral, dose not given, treatment-related, all grades | patients with immune-mediated AE | 0%
NC(=O)N1c2ccccc2C=Cc2ccccc21 | – | male patients | oral, dose not given, on-treatment adverse events | patients with Flatulence | 0%
Cc1cc(Nc2ccc(S(F)(F)(F)(F)F)cc2)n2nc(C(C)(F)F)nc2n1 | – | Plasmodium vivax malaria patients | oral, 400 mg | patients with eye disorders | 0%
C[C@@H](Nc1cc(F)cc(F)c1)c1cc(C(=O)N(C)C)cc2c(=O)cc(N3CCOCC3)oc12 | CTCAE v4, refers to: maculopapular rash | patients with advanced solid tumours | oral, dose not given, phase I dose expansion | patients with related SAE | 0%
C=CC[C@@H]1/C=C(\C)C[C@H](C)C[C@H](OC)[C@H]2O[C@@](O)(C(=O)C(=O)N3CCCC[C@H]3C(=O)O[C@H](/C(C)=C/[C@@H]3CC[C@@H](O)[C@H](OC)C3)[C@H](C)[C@@H](O)CC1=O)[C@H](C)C[C@@H]2OC | – | kidney transplant recipients, whole blood | oral, dose not given, early post-transplant phase | patients with C0 in therapeutic range | 35%
